Published values collected from several papers.
Parts stem from different laboratories: compare values within a part only.

Series 1 — technique: protein-binding microarray; molecule type: double-stranded DNA, one strand shown; sample: in vitro; tested at: not given; direction: higher = stronger binding; quantity: E-score
Target: Cyclic AMP-dependent transcription factor ATF-1 (ATF1, Homo sapiens, UniProt P18846, residues 1-271, full length assumed)
Notes: k-mer, scored over probes, only values ≥0.25
Target sequence (chain): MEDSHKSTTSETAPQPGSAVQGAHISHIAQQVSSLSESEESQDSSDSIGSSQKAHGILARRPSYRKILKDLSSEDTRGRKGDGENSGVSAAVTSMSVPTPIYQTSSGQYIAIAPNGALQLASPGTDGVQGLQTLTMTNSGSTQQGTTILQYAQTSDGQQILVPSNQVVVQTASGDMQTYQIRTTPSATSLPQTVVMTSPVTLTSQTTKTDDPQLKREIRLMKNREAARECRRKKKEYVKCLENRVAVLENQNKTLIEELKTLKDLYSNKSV
ACGTAGA: 0.414
CGTCGAC: 0.27
CATCATC: 0.281
GACGCAA: 0.331
CCCCTCC: 0.337
ATTACGC: 0.331
GCATCAC: 0.337
CATTACG: 0.307
GAATGAC: 0.252
AACGCGT: 0.288
CATGACG: 0.473
GGTGACA: 0.278
ATATGAC: 0.366
GATGACA: 0.344
ATACGTC: 0.422
CGTCAGA: 0.414
ATCGTCA: 0.433
TACGTCA: 0.494
AGACGTA: 0.32
GACGAAA: 0.311

Series 2 — technique: universal PBM; molecule type: double-stranded DNA, one strand shown; sample: in vitro; tested at: not given; direction: higher = stronger binding; quantity: E-score
Target: Sal-like protein 4, full length isoform B (SALL4, Homo sapiens, UniProt Q9UJQ4-2, residues 1-616)
Notes: 8-mer, flanks averaged, mean of replicates
Construct (chain): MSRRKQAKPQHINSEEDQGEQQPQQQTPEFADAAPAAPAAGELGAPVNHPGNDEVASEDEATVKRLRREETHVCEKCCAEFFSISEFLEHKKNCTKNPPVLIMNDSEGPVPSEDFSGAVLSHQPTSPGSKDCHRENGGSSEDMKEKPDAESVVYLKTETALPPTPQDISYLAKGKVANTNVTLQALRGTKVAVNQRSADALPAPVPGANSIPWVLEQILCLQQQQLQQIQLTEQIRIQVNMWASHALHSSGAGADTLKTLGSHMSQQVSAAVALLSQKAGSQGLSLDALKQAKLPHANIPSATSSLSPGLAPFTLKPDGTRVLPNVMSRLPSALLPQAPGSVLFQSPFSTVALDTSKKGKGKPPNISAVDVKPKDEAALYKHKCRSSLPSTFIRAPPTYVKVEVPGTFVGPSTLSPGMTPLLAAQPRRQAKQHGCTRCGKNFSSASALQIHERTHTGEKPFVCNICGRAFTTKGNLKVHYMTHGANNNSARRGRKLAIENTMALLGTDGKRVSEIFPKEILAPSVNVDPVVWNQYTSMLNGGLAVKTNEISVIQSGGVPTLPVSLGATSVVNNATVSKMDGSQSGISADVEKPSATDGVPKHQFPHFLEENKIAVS
CTTCCTAC: -0.15
AAGTTTAA: 0.15
GCCCAGCC: -0.335
AAAAGCCG: -0.17
CCCTTCCA: -0.226
ATCCGACC: -0.0669
CAACAGCC: -0.0719
CCACCCGA: -0.126
ATTTCACA: 0.276
ACTTCGGG: -0.132
CAACTCCG: -0.262
GTAGTGAA: 0.0902
ATCCCTTC: -0.0429
TGAGGGAA: 0.0534
TACCGATA: 0.121
CGTTCTAG: -0.0826
CTGAACTC: -0.148
ATGGTCAG: 0.184
AGGGGCTC: -0.306
GGGCACAA: -0.122
CTTCTGAA: 0.122
ATCCATTA: 0.157
CTGCACAG: -0.285
TCGTGCAA: 0.132
ACTGATTG: -0.0464

Series 3 — technique: competition protein-binding microarray; molecule type: double-stranded DNA, one strand shown; sample: in vitro; tested at: 2 µM; together with: Cbf1 competitor, 0.05 µM; direction: higher = stronger binding; quantity: fluorescence intensity; shared flanks, not repeated: … GTCTTGATTCGCTTGACGCTGCTG
Target: Phosphate system positive regulatory protein PHO4, full length, GST-tagged (PHO4, Saccharomyces cerevisiae, UniProt P07270, residues 1-312)
Notes: whole 60-bp probe, lowest competitor level
Target sequence (chain): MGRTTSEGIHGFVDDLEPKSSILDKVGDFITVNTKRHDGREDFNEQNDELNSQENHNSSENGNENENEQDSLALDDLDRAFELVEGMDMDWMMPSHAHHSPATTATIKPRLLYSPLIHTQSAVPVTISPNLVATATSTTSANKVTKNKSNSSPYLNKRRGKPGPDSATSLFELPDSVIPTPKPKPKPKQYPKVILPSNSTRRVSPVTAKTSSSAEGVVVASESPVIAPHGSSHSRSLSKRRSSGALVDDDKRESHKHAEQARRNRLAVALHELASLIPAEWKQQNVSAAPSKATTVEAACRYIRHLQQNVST
CCGCCGGTCTTTTCTCTCGTGGTGAGTGGTACTTTG: 6910 a.u.
CTTCTGTAAATTTGGGCAGTGGGTGGACGCGCCCCG: 3920 a.u.
ACTCTGTTTGCGAGTCACGTGAAATATTTCCTGTGG: 9860 a.u.
CGGACGCTCAAACGATCCGTGACTCGGCGCCACAGG: 3770 a.u.
ATATCCCATCAACTACACGTGCCAGACCAGTTAAAG: 18100 a.u.
CGGGGTTAAGTTTGAATTGTGGGTGGCTTGCAGCAG: 4670 a.u.
CCGATGACGAGTTGGTCCGTGATGGCGGAACTAACT: 3990 a.u.
AGAAGGATGAATTGGAACGTGTTGGCAAGTCTAACC: 11700 a.u.
GTTACCATTGTCCATCACGATCAAGAAACTCGCTGT: 4430 a.u.
CCGACCTTGTTGAAGTGCATGACAATACCGTCGTCC: 4300 a.u.
AAGAAGGGTATTTGTCACGTCAAGCCAGTGAGATGT: 3980 a.u.
TGCGCAACAACTTGTCACACCACTTTATGTCTAGAA: 4750 a.u.
CCCGTTGAGCAGTGCCCCGTGGAACCGTAAACTATC: 8010 a.u.
GAACTGCTTCGAAAACACGTGTTCCCCTCCGTTCCA: 17000 a.u.
CTTCTGTAAATTTGTCACACAACTTGACGCGCCCCG: 4020 a.u.
TGGTATCGCGAAAGAAACGTGTAGGCAATTAGGACT: 12800 a.u.
AAAGCGGTAATTTGTAAAGTGGGTGCAGATATCTAT: 3640 a.u.
TCTCTCTGCTGATTGGACGTGGGTACGTACTATTTC: 5590 a.u.
CTTCTGTAAATTTGCTCGGTGGGTGGACGCGCCCCG: 4310 a.u.

Series 4 — technique: RNA Bind-n-Seq; molecule type: RNA; sample: in vitro; tested at: 365 nM; relative to: no-protein control; direction: higher = stronger binding; quantity: RBNS enrichment (R)
Target: RNA binding protein fox-1 homolog 2, RRM domain, GST-SBP tag (RBFOX2, Homo sapiens, UniProt O43251-10, residues 100-194)
Notes: natural RNA segment, single round, ends assumed
Shared flanks, not repeated: GGGAGUUCUACAGUCCGACGAUC … UGGAAUUCUCGGGUGCCAA
Residues (chain): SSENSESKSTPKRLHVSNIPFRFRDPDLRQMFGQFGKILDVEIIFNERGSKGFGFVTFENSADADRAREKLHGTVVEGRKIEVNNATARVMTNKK
AGCUCCACUGUUGGCAAAGUCUUGGCAGUGGUACAUUAUUCAUCGUGUUUGCAUUCUUGUUAAUUUUUUUUUUGGCUUUGGAAUGUGACACAGCCUUUUUGAUCAUUUCU: 0.725
UGAGGAGGUUUAGGUGAAGUUGUGUUUGUGAACUCGGAGUUCUUCUCUGUAUUUGCCCAGGAUGGAGCACUCUGUCCCUGUCACAGGUGUGGUGAUUCCUGAGACUGGCA: 1.88
GCUUGAGUCAUGCCUUACCUGCUAUAAGACAGAGUUUCCGCAUAGGUCAGUUCUAUGUGGUGUGGCAGUUACAUAGGAUGAGUACAUUUUCAGAGCAGCUAGAUGUCUGC: 0.731
AGUCUGUGAGAGGGAGUCUCUCCUAGGCCAGAUGUGGGUUUCUGUACUCCAAGAGGAUAGGGAGGGCACUGCACCCAAGCAGGAGGUGAGGUCUGUCACUAGGCAGGAAA: 0.749
UUGAUACGAGAAAUAUGGCUUAAGAACACAUGAUGUCUCAGAAGGCCCAUGCGCACACCAGACCGCUGUCUUAGUACUGUCACUGUUGUAAAGGCACAUGUUGGAACACA: 0.306
GGGGAUUAGAUGCUCCUGCAUUUGUGAAAUGGUUAUAAGCAUAGAAAAAUAGGUGGUAAGCUUUCCUUCUUUCCUUAUUUUGUGUGAUGCCUUAAACUGAAAAGUUAAAA: 0.515
UCUUGGAGAAAACCAACCAUAAACUUACAGCUCUAAAAUUCAGAAAGCCCUAAAAUUUCAAACACUGUUUGAAAGAAGAGGUGGGGGCCGGGUGCCGUGGCUCAUGCCUG: 0.769
UAAGGUCCUGCUUUCUCCACCUGGAACCAAUGUCGGCAAUACCUAGUCCCACUUCUCAAACUGGAGCCUCCUCCUUUAUGUAUUUAUAUGUAUGUUUUAUGUAGUCCUCC: 1.25
CAGGGCUAAAACUCUAAUUUGGAAUUGAAUAUUGUGGAUAUCUUAGUUAAAGGCCAUGCUUACAGCUUAGAAAUGAAGCCUUAAGCUGCAUCAAGUUACGAAGUGAUUAA: 0.911
UUACUCUAGGGUAUUGAAUAAAUUUAGUCUUAUUAGAAAAAUAAAAGUUGUCUCAUGACUUUGUUUUGAGGUCUCUGGUAAGAAUUUUUUCAGGACCUGGAGAGAUAGCU: 0.502
UAUGGAGACUGAUUUGGUGGGAAAAAACCUGUUACUUUCCAGUCACCCCAGGUUCUGACUUUACCUGGGGCAAAAACAAACCACAAAAAGGGAGAAUCUCAUCUGUGAAU: 0.541
GGAAUGCAUGCAGCCUGCUGUUGGUACCCUGCUCACCUGUGUCUUUCUUACCCAGGAGGCUUCUCUCAGUGGUUGGAAGUAAAACCAUCUCAAUGGGCCUAUACAGGAAA: 7.87
